Experimental data gathered from unrelated publications.
Each line is one published result; not all experiments were run side by side. ± marks the error that the study gave.

SMILES	assay	system	setting	scale	endpoint	result
C[C@H](CN(C)Cc1ccccc1)NC(=O)c1ccc(-c2noc(C(F)(F)[18F])n2)cc1	PET	Sprague-Dawley rat, female, brain and muscle	intravenous, 60 min	baseline: brain SUV over muscle SUV	brain-to-muscle ratio	1.88 ± 0.21
Oc1ccc2ccccc2c1/N=N/c1ccccc1	–	rat whole blood QC samples	5.0 µg/L, 12 h, room temperature, short-term stability	–	measured concentration	4.94 µg/L
Cn1c(=O)oc2ccc(-c3ccc(CC(C#N)NC(=O)C4CNCCCO4)c(F)c3)cc21 (centres unmarked)	refers to: bacterial test positive	human volunteers	oral, dose not given	–	treatment-emergent adverse event incidence	7.4%
O=[11C](N1CCC(CNS(=O)(=O)c2ccc(Cl)cc2)CC1)n1cncn1	PET	Sprague-Dawley rat, cerebellum	intravenous, dose not given, baseline	–	radioactivity uptake	0.43 SUV
C=CC(=O)Nc1cc(Nc2nccc(-c3cn(C4CC4)c4ccccc34)n2)c(OC)cc1NC	radiolabelled metabolite profiling	human male, plasma	oral, 110 mg, 10 h	–	plasma concentration	12.5 ng/g
NC[C@@H](C(=O)Nc1ccc(-c2cn[nH]c2)cc1)c1ccccc1	OECD 405 eye irritation	New Zealand White rabbit, eye	topical, 0.1%, 25 h (day 2)	direction not given	total eye irritation score	1
CC(=O)N[C@@H](CO)C(=O)N[C@@H](CC(=O)O)C(=O)N[C@@H](CCCCN)C(=O)N1CCC[C@H]1C(=O)O	H&E histology	rat embolic MCAO model	dose not given, start 1 h after MCAO, read day 7	–	haemorrhage incidence	28%
Cc1cc2c(cc1C1(c3ncc(C(=O)O)cn3)CC1)C(C)(C)CCC2(C)C	–	Sprague-Dawley rat, male, plasma	oral, 100 mg/kg, 12 h, sesame oil vehicle	–	HDL level	33 ± 4.9 mg/dL
COc1cc(O)c(-c2cc(-c3cc(-c4c(O)cc(OC)c5c4C[C@@H](C)N[C@@H]5C)c4cc(C)cc(OC)c4c3O)c(O)c3c(OC)cc(C)cc23)c2c1[C@@H](C)N[C@H](C)C2	metabolic stability	human, liver microsomes	1 µM, 30 min	–	compound remaining	98%
C[C@H](NC(=O)COC(=O)[C@H](C)NC(=O)CO)C(=O)O	–	water	pH 4, 65 °C	–	depolymerization half-life	5.63 h
NS(=O)(=O)c1ccc(N2N=C(C(F)(F)F)CC2c2ccc(F)cc2F)cc1 (centres unmarked)	–	Beagle dog, male, arthritis model, plasma	oral, 4 mg/kg, second dose day 12, day 21	–	plasma concentration	74 ± 85 ng/mL
C=C(C)C(=O)Nc1ccc(-c2c(-c3ccc(Oc4nccc(C)n4)cc3)c3c(N)ncnc3n2C)cc1	–	Sprague-Dawley rat, plasma	5 µM, 18 h	–	unbound fraction	0.023
COc1ccc(-c2ccn(CC[C@](C)(C(=O)NO)S(C)(=O)=O)c(=O)c2)c(F)c1	–	CF-1 mouse, female	subcutaneous, 75 mg/kg	–	AUC	17600 ± 2490 ng·h/mL
OC1(C(F)(F)F)CCN(c2nc(Nc3ccnc(C(F)(F)F)c3)nc(-c3cccc(C(F)(F)F)n3)n2)C1 (centres unmarked)	–	Sprague-Dawley rat, both sexes	oral, 10.1 mg/kg	baseline: total drug	unchanged drug in excreta	~50%
CC(C)NC(=O)N1CC=C(c2cc3c(Nc4ccc5scnc5c4)ncnc3s2)C1	–	BALB/c mouse, plasma	oral, 10 mg/kg, 30 min	–	concentration	79.5 ng/mL
COc1ccc2cc(-c3ccc(-c4ccc(C)cn4)nc3)oc2c1	–	aqueous HEPES buffer	pH 7.4, zinc-free ligand, together with: quinine bisulfate reference	–	fluorescence quantum yield	0.25
CN(C)C(=O)c1ccnc(N2Cc3cn(Cc4ccc(F)cc4F)nc3C2)n1	–	rat, brain	10 mg/kg, 24 h	–	unbound Cmin	128 nM
CC(C)[C@H](NC(=O)CNC(=O)[C@H](CCC(N)=O)NC(=O)[C@H](C)N)C(=O)O	–	human, both sexes, plasma	intravenous infusion, 90 mg/kg/h, 2 h infusion, geometric mean	–	AUC(0-inf)	7050 ng·h/mL
CCC(=O)N(C)c1ccc(Cl)c(Cl)c1	–	mouse, brain	subcutaneous, 40 mg/kg, 1 h	–	concentration	2000 nM
C#CCOc1ccc(/C=C2\SC(=O)N(CC(=O)NCc3ccccc3)C2=O)cc1	inverse Kirkwood-Buff integrals	binary solvent mixture	298.15 K, mole fraction x1 0.70	–	Kirkwood-Buff integral G2,3	-367 cm³/mol
Cc1[nH]nc2c1N=C(c1ccccc1Cl)c1cnc(N(CCO)CCO)cc1N2	–	human male, urine	oral, 10 mg, 0-72 h	–	urinary excretion	0.19 %Dose
COc1ccc(/C=C/C2=[N+]3C(=C(CO)c4c(C)cc(/C=C/c5ccc(OC)cc5)n4[B-]3(C)C)C(C)=C2)cc1	–	acetonitrile	room temperature	–	luminescence quantum yield	3.9 ± 0.6%

SMILES	assay	system	setting	scale	endpoint	result
Cc1ccc(OCC(=O)N(Cc2cccs2)c2ccn[nH]2)cc1	–	male beagle dog, plasma	oral, 10 mg/kg, single dose	–	AUC(0-t)	119 ng·h/mL
CC1(C)COCN1C(=O)n1nnc2c(F)cc(F)cc21	–	mouse liver microsomes	50 µM, 1 h	–	compound remaining	8 ± 1%
NC12CNCCNCC(NCc3ccc(CNC(=O)CCCC(=O)NCc4ccc(-c5nncnn5)cc4)cc3)(CNCCNC1)CNCCNC2.[64Cu+2]	OLINDA dosimetry	muscle	24 h pretargeting interval, together with: huA33-TCO pretargeting	–	mean absorbed dose	0.0193 rad/mCi
C=C(c1ncc(C(=O)O)cn1)c1cc2c(cc1C)C(C)(C)CCC2(C)C	–	Sprague-Dawley rat, male	oral, 100 mg/kg, 6 h, sesame oil vehicle	–	blood cholesterol	89 ± 16 mg/dL
Cc1ccc(CNC(=O)Cc2ccc(-c3ccc(OCCN4CCOCC4)cc3)cn2)cc1	–	ICR mouse	intravenous, 2 mg/kg	–	AUC(0-t)	770 ± 40 ng·h/mL
CC(C)C[C@@H](NC(=O)[C@H](NC(=O)[C@H]1CCCN1)[C@H](C)O)C(=O)N[C@H](Cc1c[nH]cn1)C(=O)N[C@@H](C(=O)N[C@H](Cc1c[nH]cn1)C(=O)N[C@H](CC(N)=O)C(=O)N[C@H](CCCNC(=N)N)C(=O)N[C@H](CCCNC(=N)N)C(=O)N[C@H](CCCNC(=N)N)C(=O)N[C@H](CCCNC(=N)N)C(=O)N[C@H](CCCNC(=N)N)C(N)=O)[C@H](C)O	–	beagle dog, plasma	oral, 50 mg/kg, single dose	–	AUC(0-inf)	26000 ng·h/mL
C=C(c1ccc(C(=O)O)c(F)c1)c1cc2c(cc1C)C(C)(C)C=CC2(C)C	–	Sprague-Dawley rat, male, plasma	oral, 100 mg/kg, 12 h, sesame oil vehicle	–	HDL level	39 ± 3.2 mg/dL
CCc1cc2c(N3CCN([11C](=O)c4ccc(-c5ccccc5)cc4)CC3)nc(N3CCNC(=O)C3)nc2s1	PET	Wistar rats, male, whole body	intravenous, dose not given, together with: tariquidar 15 mg/kg iv, 30 min before	baseline: baseline	radioactivity increase	2 to 3 fold
CC[C@H](C)[C@H](NC(=O)[C@H](N)Cc1ccc(O)cc1)C(=O)N[C@H]1CSSC[C@@H](C(=O)N(C)[C@H](C(N)=O)[C@@H](C)CC)NC(=O)[C@H](CCCNC(=N)N)NC(=O)[C@H](Cc2c[nH]cn2)NC(=O)[C@H](C)NC(=O)CN(C)C(=O)[C@H](Cc2c[nH]c3ccccc23)NC(=O)[C@H](CC(=O)O)NC(=O)[C@H](CCC(N)=O)NC(=O)[C@H](Cc2cn(C)c3ccccc23)NC(=O)[C@H](C(C)C)NC1=O	UPLC-ESI-MS	cynomolgus monkey plasma	0.36 µg/mL, 24 h, 4 °C, autosampler after SPE	–	recovery	98.7 ± 0.1%
CCOC(=O)c1[nH]c(C)c(/C=C/c2c(I)c(C)c3n2[B-](F)(F)[N+]2=C(C)C(I)=C(C)C2=C3c2cc(OC)cc(OC)c2)c1C	–	dichloromethane	–	–	log molar absorptivity	4.85 M⁻¹ cm⁻¹
CCC/C(=C\C1=C(OC)C(=O)c2ccccc2C1=O)C(=O)NOC	metabolic stability	mouse, liver microsomes	1 µM, pH 7.4	–	scaled CLint	23.4 mL/min/kg
CCCCC1NC(=O)c2ccccc21 (racemic)	–	Wistar rat, both sexes, plasma	oral, 10 mg/kg	–	absorption half-life	5.6 ± 0.1 min
N=C(N)NCCC[C@@H]1NC(=O)[C@H](Cc2c[nH]c3ccccc23)NC(=O)[C@@H](CC2CCCCC2)NC(=O)[C@@H]2CCCN2C(=O)[C@@H](NC(=O)CCc2ccccc2)CCCNC1=O	–	C57BL/6J mice, brain	oral, 1 mg/kg	–	elimination half-life	2.75 h
O=C(O)C1CN(Cc2ccc(-c3noc(-c4ccc(OCC[18F])c(C(F)(F)F)c4)n3)cc2)C1	biodistribution	C57BL/6 mouse, LPS-treated, liver	2 h	–	liver uptake	24.4 %ID/g
COC(=O)C(c1ccccc1Cl)N1CCC(SCC(=O)c2cccc(OC)c2)C(=CC(=O)O)C1 (mixture of isomers)	HPLC-MS/MS	feline EDTA plasma	100 ng/mL, 72 h, -20 °C, storage stability	–	deviation from nominal	2%
CCCC[C@H](NC(=O)CNC(=O)CNC(=O)CN1CCN(CC(=O)O)CCN(CC(=O)O)CCN(CC(=O)O)CC1)C(=O)N[C@H]1CC(=O)NCCCC[C@@H](C(N)=O)NC(=O)[C@H](Cc2c[nH]c3ccccc23)NC(=O)[C@H](CCCNC(=N)N)NC(=O)[C@@H](Cc2ccccc2)NC(=O)[C@H](Cc2c[nH]cn2)NC1=O [copper-64 labelled]	–	female C57 mouse, B16/F1 melanoma, bone	intravenous, 0.037 MBq, 4 h	–	tissue uptake	1.95 ± 0.53 %ID/g
CC(=O)N[C@H](CC(=O)O)C(=O)N[C@H](Cc1c[nH]c2ccccc12)C(=O)N[C@H](Cc1ccccc1)C(=O)N[C@H](CCCCN)C(=O)N[C@H](C)C(=O)N[C@H](Cc1ccccc1)C(=O)N[C@H](Cc1ccc(O)cc1)C(=O)N[C@H](CC(=O)O)C(=O)N[C@H](CCCCN)C(=O)N[C@@H](C(=O)N[C@H](C)C(=O)N[C@H](CCC(=O)O)C(=O)N[C@H](CCCCN)C(=O)N[C@H](Cc1ccccc1)C(=O)N[C@H](CCCCN)C(=O)N[C@H](CCC(=O)O)C(=O)N[C@H](C)C(=O)N[C@H](Cc1ccccc1)C(N)=O)C(C)C	–	statin-treated high-risk CHD men, plasma	oral, 300 mg daily, day 1, 0 to 2 h, mean, undetectable set to 0	–	Cmax	4.43 ng/mL
CCCCCCCCC=CCCCCCCCC(=O)OCC1OC(n2ccc(N)nc2=O)C(F)(F)C1O (centres unmarked)	–	male beagle dog, plasma	intravenous, 4 mg/kg	–	AUC	3.2 µM·h
C[C@H](NC(=O)[C@H](CCCNC(=N)N)N(C)C(=O)[C@@H]1CCCN1C(=O)[C@H](CCCNC(=N)N)NC(=O)CNC(=O)c1ccc2c(c1)C1(OC2=O)c2ccc(O)cc2Oc2cc(O)ccc21)C(=O)N[C@@H](Cc1ccccc1)C(=O)N[C@H](C(=O)N[C@@H](Cc1ccccc1)C(=O)N(C)CC(=O)N[C@@H](CCC(=O)O)C(=O)NCC(N)=O)[C@@H](C)O	–	HeLa cytosolic lysate	1 µM, 37 °C	–	t1/2	1.4 h
COc1cc(NC(C)=O)c2c(c1O)-c1c(OC)c(OC)cc3c1C(C2)N(C)CC3 (centres unmarked)	–	rat kidney homogenate	5 µg/mL, 40 d, -20 °C, long-term storage	–	remaining compound	86.7 ± 1%
CCCC[C@@H]1NC(=O)[C@@H](NC(=O)[C@H](CCC(=O)O)NC(=O)CNC(=O)CN2CCN(CC(=O)O)CCN(CC(=O)O)CCN(CC(=O)O)CC2)CCCCNC(=O)C[C@@H](C(N)=O)NC(=O)[C@H](C(C)C)NC(=O)[C@@H]2CCCN2C(=O)[C@H](CCCNC(=N)N)NC(=O)CNC(=O)[C@H](Cc2c[nH]c3ccccc23)NC(=O)[C@H](CCCNC(=N)N)NC(=O)[C@@H](Cc2ccccc2)NC(=O)[C@H](Cc2c[nH]cn2)NC(=O)[C@H](CCC(=O)O)NC1=O [gallium-67 labelled]	–	C57 mice with B16/F1 melanoma, pancreas	intravenous, 0.037 MBq, 24 h	–	tissue uptake	0.11 ± 0.07 %ID/g
CC(C)(O)c1ncc([S@](N)(=O)=NC(=O)Nc2c3c(cc4c2CCC4)CCC3)s1	–	healthy human, fasted	oral, 100 mg single dose, capsule formulation	–	AUC(0-last)/dose	722 ng·h/mL/mg

Some of these lines once more:
SMILES	assay	system	setting	scale	endpoint	result
N=C(N)NCCC[C@@H]1NC(=O)[C@H](Cc2c[nH]c3ccccc23)NC(=O)[C@@H](CC2CCCCC2)NC(=O)[C@@H]2CCCN2C(=O)[C@@H](NC(=O)CCc2ccccc2)CCCNC1=O	–	C57BL/6J mice, brain	oral, 1 mg/kg	–	elimination half-life	2.75 h
O=C(O)C1CN(Cc2ccc(-c3noc(-c4ccc(OCC[18F])c(C(F)(F)F)c4)n3)cc2)C1	biodistribution	C57BL/6 mouse, LPS-treated, liver	2 h	–	liver uptake	24.4 %ID/g
COC(=O)C(c1ccccc1Cl)N1CCC(SCC(=O)c2cccc(OC)c2)C(=CC(=O)O)C1 (mixture of isomers)	HPLC-MS/MS	feline EDTA plasma	100 ng/mL, 72 h, -20 °C, storage stability	–	deviation from nominal	2%
CCCC[C@H](NC(=O)CNC(=O)CNC(=O)CN1CCN(CC(=O)O)CCN(CC(=O)O)CCN(CC(=O)O)CC1)C(=O)N[C@H]1CC(=O)NCCCC[C@@H](C(N)=O)NC(=O)[C@H](Cc2c[nH]c3ccccc23)NC(=O)[C@H](CCCNC(=N)N)NC(=O)[C@@H](Cc2ccccc2)NC(=O)[C@H](Cc2c[nH]cn2)NC1=O [copper-64 labelled]	–	female C57 mouse, B16/F1 melanoma, bone	intravenous, 0.037 MBq, 4 h	–	tissue uptake	1.95 ± 0.53 %ID/g
CC(=O)N[C@H](CC(=O)O)C(=O)N[C@H](Cc1c[nH]c2ccccc12)C(=O)N[C@H](Cc1ccccc1)C(=O)N[C@H](CCCCN)C(=O)N[C@H](C)C(=O)N[C@H](Cc1ccccc1)C(=O)N[C@H](Cc1ccc(O)cc1)C(=O)N[C@H](CC(=O)O)C(=O)N[C@H](CCCCN)C(=O)N[C@@H](C(=O)N[C@H](C)C(=O)N[C@H](CCC(=O)O)C(=O)N[C@H](CCCCN)C(=O)N[C@H](Cc1ccccc1)C(=O)N[C@H](CCCCN)C(=O)N[C@H](CCC(=O)O)C(=O)N[C@H](C)C(=O)N[C@H](Cc1ccccc1)C(N)=O)C(C)C	–	statin-treated high-risk CHD men, plasma	oral, 300 mg daily, day 1, 0 to 2 h, mean, undetectable set to 0	–	Cmax	4.43 ng/mL
